Published values gathered from unrelated publications.
Each numbered part is a random draw from the data of one study; scales do not carry over between parts.

Set 1 — method: RNA Bind-n-Seq; molecule type: RNA; matrix: in vitro; tested at: 365 nM; reference: no-protein control; reading: higher = stronger binding
Target: RNA binding protein fox-1 homolog 2, RRM domain, GST-SBP tag (RBFOX2, Homo sapiens, UniProt O43251-10, residues 100-194)
Setting: natural RNA segment, single round, ends assumed
All sequences stand within: GGGAGUUCUACAGUCCGACGAUC … UGGAAUUCUCGGGUGCCAA
Residues (chain): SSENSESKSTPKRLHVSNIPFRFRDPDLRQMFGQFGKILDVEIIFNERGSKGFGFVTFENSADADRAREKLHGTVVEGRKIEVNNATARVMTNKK
Oligonucleotide	RBNS enrichment (R)
GCAGUCAGUUUCUGGUCCUUAGAUGUAUUCUAAGCAGUGUAAGUGUCUGAUUGUACCCUGGUGGCAUGAUCAGUUGUCUUGUAGCUGUCCCCCGCUCCAUAGUUUACAAU	0.344
UGAAGAAAUCACUAUUGUGUAUAUACUCAAGUCUUUUUAUUUUUCCUCUUUUCAUAAAUGCUCUUGGACAUUAUUGGGCUUGCAGAGUUCCCUUAUUCUGGGGAUUACAA	0.929
ACAGCUUUCUCUCUCAGCCAUUGUUCACCCCACUUGAAAAUUCAAACAAGAAAACUUUGCUUCAAAGAUCUCAUGUGUGGGAACCACAGCGCCUGGUUGCCUUUCUCCUG	0.394
ACCAUUUGGAUUUUUUUAAAACAAAAGUAUUAAUAAUCUGGAAGACAGUGUUGCCCAGGUCAGGAGUGUUUUCUUGGUGGUUCCAGCCCCCAUCAAUUGAACUGUUUCUG	0.481
CAUUGUGGGCAUAUGGUGGGCUCCUUGAGAGGAGGGAGUCUCAGCUGGGGCCUGGCUGCAGAGACCUGCUCUUGAAUAGGGCUGCCUUUGGGAUCAGGGAGCCGAGCAUA	1.48
GCUGUUCCCCUCGGGAACAUGAGGUGGUGGUGGCGCAGCAGACUGCGAUCAAUUCUGCAUGGUCACAGUAGAGAUCCCCGCAACUCGCUUGUCCUUGGGUCACCCUGCAU	3.95
CGCUGGCCCUGGAUGUCAUACGAGUUGGGGACCAGAAAUCUGGGCUCAGAGAACCCGUCCAGGGAGAUUUGAAGCCAUGGGUUAUCUUCUAGAGUUGAUACUGAUAAUAU	0.431
CCUCCCUCCCUGCAGGCUUUUGUCUGGCAGGAGACAGCAACACCUCCUAGGACUCUGUACUUGAUUUUAAGCACUGGAGGAAACACCUCAGCAGUUUUGUGGUCUGCUAA	0.619
UUUAAGGUAUUUAAAGUAUUUUCUUCUCUGUGAGAAGGUUUAUUGUUAAUACAAGGUAUAAUAAAAUUAUCGCAACCCCUCUCCUUCCAGUAUAACCAGCUGAAGUUGCA	1.53
GAACCACUUGAGACUGAGACUGUCCCCUCCAGCUGUGCUGUACUUCCAGGUGCGCACUUUAAAGAAAGUGGCCACCAGGUGUGAUGGUGCAGUCCUAUAGUAACCGAGCU	0.293
GAGAGCAGGUGUACACCCAACCAAAGUGAUUGUGCCCUUGGUUGGGGGGCGCGGGCAUAUAACCUGUCAGAAGCAAACAGGAGCGGCAACUUCUAACUUUGCUCCAAGCC	0.72
CUUUCAGUUGGAGAGGCAGGUUGCUUUAAUGUCACUCUGACCUGCGUUGUUUGACUAUUUUAUAAUUUUGUUAUUAAAACAUCCAGGGUGAUUUCAUCUUUGUUCCUAGA	0.813

Set 2 — method: universal PBM; molecule type: double-stranded DNA, one strand shown; matrix: in vitro; tested at: 600 nM; reading: higher = stronger binding
Target: Sal-like protein 4, full length isoform A (SALL4, Homo sapiens, UniProt Q9UJQ4, residues 1-1053)
UniProt Q9UJQ4, sequence (whole entry, looked up): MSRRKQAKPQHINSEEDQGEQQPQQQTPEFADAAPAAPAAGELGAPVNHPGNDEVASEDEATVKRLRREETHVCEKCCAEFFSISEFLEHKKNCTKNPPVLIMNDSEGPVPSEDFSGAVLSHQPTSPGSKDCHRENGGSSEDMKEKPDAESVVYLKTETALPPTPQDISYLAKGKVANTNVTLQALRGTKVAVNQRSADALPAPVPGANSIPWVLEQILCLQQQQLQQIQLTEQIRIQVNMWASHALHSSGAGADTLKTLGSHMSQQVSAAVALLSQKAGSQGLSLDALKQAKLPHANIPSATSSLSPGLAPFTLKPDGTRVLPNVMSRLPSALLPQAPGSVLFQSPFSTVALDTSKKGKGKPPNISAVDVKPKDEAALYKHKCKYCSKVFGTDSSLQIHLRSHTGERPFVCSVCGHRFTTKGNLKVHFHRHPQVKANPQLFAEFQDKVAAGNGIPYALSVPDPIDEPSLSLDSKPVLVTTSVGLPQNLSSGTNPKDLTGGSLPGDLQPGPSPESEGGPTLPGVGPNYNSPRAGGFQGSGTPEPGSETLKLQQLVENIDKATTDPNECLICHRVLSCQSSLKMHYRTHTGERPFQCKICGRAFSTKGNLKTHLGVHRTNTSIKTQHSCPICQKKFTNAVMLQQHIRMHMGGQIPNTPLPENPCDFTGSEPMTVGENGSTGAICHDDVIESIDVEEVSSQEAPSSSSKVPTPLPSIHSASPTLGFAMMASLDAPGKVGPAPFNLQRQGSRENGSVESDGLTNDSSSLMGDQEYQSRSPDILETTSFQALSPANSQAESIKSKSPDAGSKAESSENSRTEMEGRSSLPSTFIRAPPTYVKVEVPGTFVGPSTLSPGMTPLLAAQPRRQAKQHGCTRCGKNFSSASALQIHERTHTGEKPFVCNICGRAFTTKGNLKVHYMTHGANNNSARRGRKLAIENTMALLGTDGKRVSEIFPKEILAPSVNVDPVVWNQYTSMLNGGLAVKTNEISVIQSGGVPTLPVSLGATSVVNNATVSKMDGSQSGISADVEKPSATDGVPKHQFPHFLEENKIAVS
Setting: 8-mer, flanks averaged, mean of replicates
Oligonucleotide	E-score
ATGGCCCG	-0.286
CTGAATAC	0.085
ACAGCAAC	-0.0177
ACTTGGCT	-0.145
TCAGTAAA	0.117
AATAATCA	0.355
AATAATAG	0.348
CAGCTTCG	-0.124
GATGGGAA	-0.0749
CAGGGTCA	-0.194
AACGCAAA	0.113
ATCTGGAG	-0.0197
TAAGTGCA	0.111
GGAGGATA	0.139
CCAGACAA	-0.0677
GGCTCCAA	-0.213
ATTGGCGA	0.104
CAGGATGG	-0.155
ATGAATTG	0.263
GATACTCA	0.046
CAGTGCTA	-0.0897
AACTTCCT	0.0551
AACGTCCA	0.0151
GCGCTTCA	-0.146
AAGCTCTG	-0.152

Set 3 — method: aptamer microarray, sandwich; molecule type: DNA with 2'F-ANA; matrix: in vitro; tested at: 200 nM; with: Cy3 exosite-II aptamer, 400 nM; reading: higher = stronger binding; oligonucleotide: GGTTGGTGTGGTTGG
Target: Prothrombin, mature alpha-thrombin (F2, Homo sapiens, UniProt P00734)
Setting: whole 15-mer aptamer, many near background
Modification	mean fluorescence intensity
2'F-ANA at 3 4 7 11	617 a.u.
2'F-ANA at 1 2 4 5 6 7 9 10 11 14 15	47.9 a.u.
2'F-ANA at 1 2 3 6 8 12 14 15	94.1 a.u.
2'F-ANA at 1 2 3 5 6 7 10 12 13 14 15	50.2 a.u.
2'F-ANA at 1 2 3 4 7 10 13 14 15	52.7 a.u.
2'F-ANA at 5 6 7 10 11 12	67.9 a.u.
2'F-ANA at 1 3 6 8 9 12 13 15	505 a.u.
2'F-ANA at 3 6 7 10 13 15	478 a.u.
2'F-ANA at 1 2 3 6 12 14	83 a.u.
2'F-ANA at 1 2 3 5 12 13 14 15	46.6 a.u.
2'F-ANA at 2 4 7 13 14	114 a.u.
2'F-ANA at 1 2 3 4 5 7 11 14	44.1 a.u.
2'F-ANA at 5 7 9 10 12 13 14 15	44.7 a.u.
2'F-ANA at 3 6 8 10 11 13 15	377 a.u.
2'F-ANA at 1 4 5 6 7 8 9 10 11 13 14 15	46.7 a.u.
2'F-ANA at 1 3 6 7 9 11 12 15	346 a.u.
2'F-ANA at 1 2 4 5 6 7 11 12 15	81.1 a.u.
2'F-ANA at 1 3 4 5 7 9 11 12	105 a.u.
2'F-ANA at 1 2 4 5 6 7 8 10 11 15	73.2 a.u.
2'F-ANA at 1 2 3 8 9 10 11 14 15	52.7 a.u.
2'F-ANA at 7 8 9 10 12 14 15	121 a.u.
2'F-ANA at 2 3 5 6 7 8 9 10 11 12 13 15	55.7 a.u.

Set 4 — method: RNA Bind-n-Seq; molecule type: RNA; matrix: in vitro; tested at: 200 nM; setting: whole 134-nt RNA, ends assumed; with: 150 mM LiCl; reference: input library; reading: higher = stronger binding; library: 7-deaza-guanosine replaces G
Target: Fragile X messenger ribonucleoprotein 1, C-terminal low-complexity region (Fmr1, Mus musculus, UniProt P35922)
All sequences stand within: GGGAGUUCUACAGUCCGACGAUC … UGGAAUUCUCGGGUGUCAAGG
Oligonucleotide	log2 enrichment
UAACUUUAGAGGAGGAUCUCAUGGAUAUGGCAGUGGACGUGGAUUUGGGGAUGGCUAUAAUGGGUAUGGAGGAGGACCUGGAGGUGGCAA	-0.214
GUCCUGUGCUACACAUCGUAUGUACCGAAUCGGCCCCCGGGCCCCCGGGCCCCCGGGGAAAGUAUUAUGUUACGCCGUUCGGAUCUGCAC	-2.51
CAUCAAAAUAGCUACAAACCAUACUAAAUUAUUCCAUUUGCAACUUAUCCCCAACAGGUAUGUUCUAAAAAUAGUUUUUUUUUGUCAUUU	-0.535
UAACUUUAGAGGAGGAUCUGAUGGAUAUGGCAGUGGACGUGGAUUUGCGGAUGGCUAUAAUGGGUAUGGAGGAGGACCUGGAGGUGGCAA	0.35
CCUCAAGUCCUGUGCUACACAUCGUAUGUACCGAAUCGGGUGGGUGGGUGGGAAAGUAUUAUGUUACGCCGUUCGGAUCUGCACUUCCAG	-0.0517
CUCAAGUCCUGUGCUACACAUCGUAUGUACCGAAUCGGGAAGGAAGGGGAAGGAAAGUAUUAUGUUACGCCGUUCGGAUCUGCACUUCCA	-0.838
CCUGUGCUACACAUCGUAUGUACCGAAUCGGGGAGGGGUUUUUUUGGGGAAAAAAAGGGGAAAGUAUUAUGUUACGCCGUUCGGAUCUGC	-1.25
CACAGACAACACGCACCCACACAGACACAGAGGGAAGGGGUUGGGAUGGGGACAGUGUGCACAGCAGGGCGGGGUAGGACCCCAGCCCCU	0.1
GUCCUGUGCUACACAUCGUAUGUACCGAAUCGGGUUUUUUUGGGAAAAAGGGUUUGGGAAAGUAUUAUGUUACGCCGUUCGGAUCUGCAC	-3.07
ACCAUGCAGGUCGGCAUCUUUGGGAAGUGGGGCAAGGGGGGGAUAGGGAGGGGGGUAACACUUUGGGAACAGGUGGUCCCAGGUCGUUUC	1.55
CUCAAGUCCUGUGCUACACAUCGUAUGUACCGAAUCGGAGGAGGUUUUUUUGGAAAGUAUUAUGUUACGCCGUUCGGAUCUGCACUUCCA	-0.86

Some of these lines once more (set 3):
Modification	mean fluorescence intensity
2'F-ANA at 3 6 7 10 13 15	478 a.u.
2'F-ANA at 1 2 3 6 12 14	83 a.u.
2'F-ANA at 1 2 3 5 12 13 14 15	46.6 a.u.
2'F-ANA at 2 4 7 13 14	114 a.u.
2'F-ANA at 1 2 3 4 5 7 11 14	44.1 a.u.
2'F-ANA at 5 7 9 10 12 13 14 15	44.7 a.u.
2'F-ANA at 3 6 8 10 11 13 15	377 a.u.
2'F-ANA at 1 4 5 6 7 8 9 10 11 13 14 15	46.7 a.u.
2'F-ANA at 1 3 6 7 9 11 12 15	346 a.u.
2'F-ANA at 1 2 4 5 6 7 11 12 15	81.1 a.u.
